Measured values pooled from the literature.
Every numbered part comes from another study and shows a few of its results, in no order. Positions count from the first letter of the parent shown.

Series 1
Target: TAR DNA-binding protein 43, full length, His tag (TARDBP, Homo sapiens, UniProt Q13148, residues 1-414)
Technique: RNA Bind-n-Seq
Molecule type: RNA
Matrix: in vitro
Tested at: 20 nM
Setting: 6-mer, flanks averaged, single round
Added: 150 mM LiCl
Baseline: input library
Direction: higher = stronger binding
`AAUCUG` — result for “6-mer enrichment (R)”: 0.851.
`CAUUGU`: “6-mer enrichment (R)” 0.971.
`UUCACA` — result for “6-mer enrichment (R)”: 0.854.
`CUGCAU`: “6-mer enrichment (R)” 0.904.
For `GCGGUU`, “6-mer enrichment (R)” read 1.04.
For `CGCCCU`, “6-mer enrichment (R)” read 1.03.
`UACCCG` — result for “6-mer enrichment (R)”: 0.921.
For `CCCUCG`, “6-mer enrichment (R)” read 0.993.

Series 2
Change: L20M
Target: ABI1, truncated, D143A, DHFR fusion (Arabidopsis thaliana)
Technique: DHFR PCA, deep sequencing
Matrix: yeast
Setting: methotrexate growth selection, single substitutions
Baseline: wild-type fitted maximum
Direction: higher = stronger binding
Starting sequence: PYL1, truncated, DHFR fusion (Arabidopsis thaliana); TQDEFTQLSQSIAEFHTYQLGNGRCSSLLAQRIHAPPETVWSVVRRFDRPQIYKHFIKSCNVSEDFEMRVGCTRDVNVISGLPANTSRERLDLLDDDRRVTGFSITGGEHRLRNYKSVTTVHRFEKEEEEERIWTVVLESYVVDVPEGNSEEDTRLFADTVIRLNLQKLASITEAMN
added: (+)-ABA 1.4 µM — “relative binding score”: 44.3%.
The “relative binding score” was 36.6% (added: (+)-ABA 0.39 µM).
For added: (+)-ABA 0.11 µM: “relative binding score” read 29.7%.
added: (+)-ABA 2500 µM — “relative binding score”: 91.2%.
It gave 64.8% for “relative binding score” (added: (+)-ABA 4.8 µM).
It gave 29% for “relative binding score” (added: (+)-ABA 0.0091 µM).

Series 3
Target: Interferon regulatory factor 5, full length, phosphomimetic (IRF5, Homo sapiens, UniProt Q13568-2, residues 1-514, S451D/S453D/S456D/S462D)
Technique: protein-binding microarray
Molecule type: double-stranded DNA, one strand shown
Matrix: in vitro
Tested at: 940 nM top
Setting: 60-bp whole probe
Added: salmon DNA 0.4 mg/ml
Baseline: random background probes
Direction: higher = stronger binding
Constant ends, left off below: GCCTAGCAC … GTCTTGATTCGCTTGACGCTGCTG
`TCAACTAGGGCATTTAGAACTGTGCTA`: “fitted relative affinity” -0.527 z-score.
`GACGAACTGAGTGTCGAGACGTGCTAG` — result for “fitted relative affinity”: -0.636 z-score.
For `TTAGTTCTCCTACTGCTTTAGTGCTAG`, “fitted relative affinity” read 0.549 z-score.
`GACGGTCTCGGTATCCGGACGTGCTAG`: “fitted relative affinity” 5.01 z-score.
For `TTTGGACTGGGACTGGGTTAGTGCTAG`, “fitted relative affinity” read -0.327 z-score.
`GACGAATTCGGGACTGGAGACGTGCTA`: “fitted relative affinity” -0.316 z-score.
`GACGATCTCAGACAGGAGACGTGCTAG`: “fitted relative affinity” -0.253 z-score.
`GACGAAATCAGTTTCGAGACGTGCTAG`: “fitted relative affinity” 4.66 z-score.

Further values, each from its own experiment
`COc1ccccc1CNC(=O)CCn1c(=O)[nH]c2ccsc2c1=O` has a nuclei count of 1.22 z-score (mouse MPNST tumor cells; high-content nuclear imaging, refers to: cell number; 10 µM, 12 h, mean of 2 replicates; baseline: plate mean, higher = more cells).

Some of these lines once more (series 3):
`TCAACTAGGGCATTTAGAACTGTGCTA`: “fitted relative affinity” -0.527 z-score.
`GACGAACTGAGTGTCGAGACGTGCTAG` — result for “fitted relative affinity”: -0.636 z-score.
